Results from different studies.
Every numbered part comes from another study and shows a few of its results, in no order. Positions count from the first letter of the parent shown.
UniProt P41143, sequence (whole entry, looked up): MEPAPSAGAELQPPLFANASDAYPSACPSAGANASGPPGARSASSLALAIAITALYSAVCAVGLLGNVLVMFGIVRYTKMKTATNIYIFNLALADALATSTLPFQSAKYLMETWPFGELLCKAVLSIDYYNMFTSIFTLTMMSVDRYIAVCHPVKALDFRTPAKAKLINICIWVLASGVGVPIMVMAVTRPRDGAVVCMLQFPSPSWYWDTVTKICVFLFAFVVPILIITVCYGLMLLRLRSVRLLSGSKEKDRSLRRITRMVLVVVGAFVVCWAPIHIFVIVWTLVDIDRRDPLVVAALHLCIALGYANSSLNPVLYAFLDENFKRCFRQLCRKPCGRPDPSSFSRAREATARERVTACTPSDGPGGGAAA
UniProt P61075, sequence (whole entry, looked up): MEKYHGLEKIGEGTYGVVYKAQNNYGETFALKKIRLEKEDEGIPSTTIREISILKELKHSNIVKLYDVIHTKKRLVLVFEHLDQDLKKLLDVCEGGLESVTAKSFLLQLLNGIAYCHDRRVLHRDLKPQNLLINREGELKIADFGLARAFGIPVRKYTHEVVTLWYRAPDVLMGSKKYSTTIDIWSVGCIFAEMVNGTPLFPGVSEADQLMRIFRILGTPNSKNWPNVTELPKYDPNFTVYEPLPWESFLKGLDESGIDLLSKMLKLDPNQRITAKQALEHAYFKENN
UniProt Q6ZN16, sequence (whole entry, looked up): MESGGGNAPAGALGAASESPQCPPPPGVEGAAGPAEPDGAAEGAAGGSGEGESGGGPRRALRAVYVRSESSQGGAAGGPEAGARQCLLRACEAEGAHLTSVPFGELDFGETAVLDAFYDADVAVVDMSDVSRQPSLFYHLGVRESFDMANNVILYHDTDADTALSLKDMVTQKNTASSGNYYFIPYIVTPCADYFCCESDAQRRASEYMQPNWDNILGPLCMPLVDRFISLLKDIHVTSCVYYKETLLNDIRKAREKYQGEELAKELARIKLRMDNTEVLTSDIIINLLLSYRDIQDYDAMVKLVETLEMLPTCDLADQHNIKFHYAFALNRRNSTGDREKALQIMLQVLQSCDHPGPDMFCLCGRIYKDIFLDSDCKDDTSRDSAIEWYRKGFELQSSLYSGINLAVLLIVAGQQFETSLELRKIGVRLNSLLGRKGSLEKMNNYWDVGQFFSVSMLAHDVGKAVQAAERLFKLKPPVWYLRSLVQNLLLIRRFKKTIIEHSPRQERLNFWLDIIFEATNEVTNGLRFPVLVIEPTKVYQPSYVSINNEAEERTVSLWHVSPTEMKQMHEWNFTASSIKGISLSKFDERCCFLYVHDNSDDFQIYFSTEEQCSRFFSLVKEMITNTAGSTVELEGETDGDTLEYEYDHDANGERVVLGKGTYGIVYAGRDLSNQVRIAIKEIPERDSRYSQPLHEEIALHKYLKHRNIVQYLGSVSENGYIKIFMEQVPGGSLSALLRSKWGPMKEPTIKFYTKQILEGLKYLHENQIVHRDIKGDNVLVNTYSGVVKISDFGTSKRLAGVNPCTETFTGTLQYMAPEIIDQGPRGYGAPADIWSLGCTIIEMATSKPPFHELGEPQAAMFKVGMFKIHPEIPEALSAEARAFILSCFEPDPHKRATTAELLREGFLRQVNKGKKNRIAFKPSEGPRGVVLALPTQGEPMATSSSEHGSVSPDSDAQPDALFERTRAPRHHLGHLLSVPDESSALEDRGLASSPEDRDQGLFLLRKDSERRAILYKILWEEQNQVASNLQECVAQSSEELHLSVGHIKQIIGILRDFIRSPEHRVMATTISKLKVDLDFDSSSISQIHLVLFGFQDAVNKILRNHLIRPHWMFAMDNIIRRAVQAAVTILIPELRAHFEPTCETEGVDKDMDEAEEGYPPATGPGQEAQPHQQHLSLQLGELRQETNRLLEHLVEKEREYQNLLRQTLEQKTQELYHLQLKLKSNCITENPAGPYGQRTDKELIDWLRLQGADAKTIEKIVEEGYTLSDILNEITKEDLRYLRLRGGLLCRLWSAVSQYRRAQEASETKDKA

Sample 1
Target: HLA class I histocompatibility antigen, A alpha chain, allele A*80:01 (Homo sapiens, UniProt P04439)
Observed: peptide-MHC binding
Form: peptide
Reading: direction not given
| Sequence | z-score of log IC50 |
| --- | --- |
| FTDNNELEF | 0.38 |
| AIDDFCLFA | 0.38 |
| GKLDPTNTL | 0.38 |
| FHSRFVQAL | 0.38 |
| GLIQYPTAW | 0.38 |
| CLSDEINHV | 0.38 |
| ATRSHRPLI | 0.38 |
| FPRYPLNVL | 0.38 |

Sample 2
Target: CCNF, cyclin fold, Cln2 fusion (human)
Method: yeast growth competition, sequencing
Medium: yeast
Setting: strong parent motif
Relative to: not given
Reading: higher = stronger binding
Starting sequence: viral docking peptide; YKVKRRLVFGADD
| Variant | normalised enrichment score |
| --- | --- |
| R5C | 5.59 |
| L7W | 0.976 |
| L7K | 0.961 |
| R5D | 0.762 |
| V3P | 8.82 |
| D12A | 9.46 |
| R5M | 4.35 |
| L7R | 1.1 |

Other studies, line by line
| Compound | tested on | test | setting | scale | measurement | value |
| --- | --- | --- | --- | --- | --- | --- |
| O=C(NCc1ncc(C(F)(F)F)cc1Cl)c1ccc2c(c1)C1(CCS(=O)(=O)CC1)[C@H](C1CC1)N2S(=O)(=O)c1ccc(F)cc1 | Mitogen-activated protein kinase kinase kinase 15 (MAP3K15, Homo sapiens, UniProt Q6ZN16) | cell-free assay, competition with immobilised ligand | 1 µM |  | remaining binding | 96% |
| CCC(COC(=O)c1cc(OC)c(OC)c(OC)c1)(c1ccccc1)N(C)C.O=C(O)/C=C\C(=O)O (stereo not drawn) | Sarcocystis neurona | parasite growth | 10 µM, second screen | relative to: untreated | log2 fold change | 0.58 |
| CCS(=O)(=O)c1cc2cc(C[C@@](O)(CC(C)(C)c3ccc(F)cc3C(N)=O)C(F)(F)F)[nH]c2cn1 | Delta-type opioid receptor (OPRD1, Homo sapiens, UniProt P41143) | binding, radioligand binding | 10 µM |  | inhibition | -3.88% |
| CN(C)C(=O)Oc1ccc[n+](C)c1.[Br-] | Sarcocystis neurona | parasite growth | 10 µM, second screen | relative to: untreated | log2 fold change | 0.00201 |
| Cc1nc(N2CC[C@@H](O)C2)ncc1-c1cc(C(F)(F)F)cc2[nH]ncc12 | Cyclin-dependent kinase 2 homolog (CRK2, Plasmodium falciparum, UniProt P61075) | cell-free assay, competition with immobilised ligand | 1 µM |  | remaining binding | 61% |

Some of these lines once more (sample 2):
| Variant | normalised enrichment score |
| --- | --- |
| R5M | 4.35 |
| L7K | 0.961 |
| D12A | 9.46 |
